Measurements pooled from the literature.
Each line is one published result; not all experiments were run side by side. Values joined by “and” are separate records of one study, mostly repeats; a detail may differ.
Target: Mitogen-activated protein kinase kinase kinase 14 (MAP3K14, Homo sapiens, UniProt Q99558)

test = kinase activity, inhibitor, ProQinase kinase profiling; conditions = 25 µM; how to read = reference: control; endpoint = remaining activity; value = 84% and 96%; SMILES = COCC12C(=O)NC3C4(C(OC)CC1O)C1CC5(O)C(OC)C(O)C(OC(C)=O)(C1C5OC(=O)c1ccccc1)C3(O)C(OC)C24 (centres unmarked)
test = binding, competition with immobilised ligand; conditions = 1 µM; endpoint = remaining binding; value = 100%; SMILES = Nc1ncc2c(n1)-c1c([nH]c3ccc(C4=CCOCC4)cc13)CCC2
test = enzyme activity, inhibitor; conditions = 10 µM; endpoint = inhibition; value = -6%; SMILES = NC(=O)C[C@H]1CCc2sc3ncnc(O[C@H]4CC[C@H](N5CCOCC5)CC4)c3c21
test = binding, competition with immobilised ligand; conditions = 1 µM; endpoint = remaining binding; value = 100%; SMILES = COc1cc(Nc2nccc(-c3cnn4nc(OC)ccc34)n2)cc(C(F)(F)F)c1
test = cell-free assay, TR-FRET; conditions = 1 µM; endpoint = inhibition; value = 31%; SMILES = C[C@H]1CN(C(=O)c2cn(-c3ccnc(N)n3)c3cc(C#CC4(O)CCCCC4)ccc23)CCN1
test = cell-free assay, competition with immobilised ligand; conditions = 10 µM; endpoint = remaining binding; value = 76%; SMILES = CC(C)=CC1OC(C)(C)C2C=C3C(=O)C(Cl)=CC(O)C3C3C(O)C4OC4C(=O)C132 (centres unmarked)
test = cell-free assay, competition with immobilised ligand; conditions = 1 µM; endpoint = remaining binding; value = 66%; SMILES = C=CC(=O)N1CCCC(n2c(=O)c3ncccc3n(Cc3ccc(Oc4ccccc4)cc3)c2=O)C1 (centres unmarked)
test = KINOMEscan; conditions = 1 µM; how to read = reference: DMSO control; endpoint = remaining binding; value = 73%; SMILES = C=CC(=O)N1CCc2ccc(-n3c(=O)ccc4cnc5ccc(-c6cnn(C)c6)cc5c43)cc21
test = binding, competition with immobilised ligand; conditions = 1 µM; endpoint = remaining binding; value = 63%; SMILES = CNC(=O)C1CCN(c2cc(C)c(F)cc2NC(=O)c2ccc(-c3cc(O)ccc3C)c(C)c2)CC1
test = binding, competition with immobilised ligand; conditions = 0.1 µM; endpoint = remaining binding; value = 80%; SMILES = Cc1cnc2nc1Nc1cccc(c1)COC/C=C/COCc1cc(ccc1OCCN1CCOCC1)N2
test = binding, competition with immobilised ligand; conditions = 3 µM; endpoint = remaining binding; value = 78%; SMILES = COc1c(Cl)cccc1Nc1c(-c2ccncc2C#C[C@@]2(C)CCCN2C(=O)/C=C/CN(C)C)[nH]c2c1C(=O)NCC2
test = kinase activity; conditions = 0.1 µM, together with: ATP at Km; endpoint = inhibition; value = 9.3%; SMILES = CCn1cc(C(=O)O)c(=O)c2c(N)c(F)c(NC3CCCCC3)cc21
test = enzyme activity, inhibitor; conditions = 0.1 µM; endpoint = inhibition; value = -2%; SMILES = CN1CCN(Cc2ccc(-c3ccc(CO[C@H]4CCC[C@@H]4NC(=O)c4cc(-c5cnn(C)c5)cnc4N)cc3)cc2)CC1
test = cell-free assay, inhibitor; conditions = 1 µM; endpoint = inhibition; value = -0.9%; SMILES = C=CC(=O)N1Cc2nc(-c3cc(-c4cc(Cl)cnc4Cl)c(F)cc3F)n(-c3ccncn3)c2C1
test = enzyme activity, inhibitor; conditions = 10 µM; endpoint = inhibition; value = -13%; SMILES = NC(=O)[C@@H](O)C[C@H]1CCc2sc3ncnc(O[C@H]4CC[C@H](N5CCOCC5)CC4)c3c21
test = KINOMEscan; conditions = 1 µM, NIK; how to read = reference: DMSO; endpoint = remaining binding; value = 98%; SMILES = COc1cc(Nc2nc(C)cc(-c3cnn4nc(OC)ccc34)n2)cc(C(F)(F)F)c1
test = KinomeScan; conditions = 0.1 µM; how to read = reference: untreated; endpoint = remaining binding; value = 100%; SMILES = CNC1C[S+]2CC[S+]3CC[S+](C1)[Ru-4]321([N]=C=S)[n]2c3ccc(OC)cc3c3c4c(c5cc(F)c[n+]1c5c32)C(=O)NC4=O (centres unmarked)

A few entries again:
test = kinase activity, inhibitor, ProQinase kinase profiling; conditions = 25 µM; how to read = reference: control; endpoint = remaining activity; value = 84% and 96%; SMILES = COCC12C(=O)NC3C4(C(OC)CC1O)C1CC5(O)C(OC)C(O)C(OC(C)=O)(C1C5OC(=O)c1ccccc1)C3(O)C(OC)C24 (centres unmarked)
test = binding, competition with immobilised ligand; conditions = 1 µM; endpoint = remaining binding; value = 100%; SMILES = Nc1ncc2c(n1)-c1c([nH]c3ccc(C4=CCOCC4)cc13)CCC2
